# Measurements pooled from the literature.
# Lines come from different studies, so protocols differ.
# 4'-phosphopantetheinyl transferase PptT: 4'-phosphopantetheinyl transferase PptT (Mycobacterium tuberculosis, UniProt O33336)
# Sequence of UniProt O33336 (whole entry, looked up): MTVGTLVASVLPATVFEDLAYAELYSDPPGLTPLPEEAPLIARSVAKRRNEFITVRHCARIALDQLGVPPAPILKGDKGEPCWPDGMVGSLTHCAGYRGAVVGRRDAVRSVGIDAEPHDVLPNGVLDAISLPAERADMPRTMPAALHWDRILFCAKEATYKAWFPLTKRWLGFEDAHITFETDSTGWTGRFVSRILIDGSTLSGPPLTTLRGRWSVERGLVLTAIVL
# Sequence of UniProt Q9UQB9 (whole entry, looked up): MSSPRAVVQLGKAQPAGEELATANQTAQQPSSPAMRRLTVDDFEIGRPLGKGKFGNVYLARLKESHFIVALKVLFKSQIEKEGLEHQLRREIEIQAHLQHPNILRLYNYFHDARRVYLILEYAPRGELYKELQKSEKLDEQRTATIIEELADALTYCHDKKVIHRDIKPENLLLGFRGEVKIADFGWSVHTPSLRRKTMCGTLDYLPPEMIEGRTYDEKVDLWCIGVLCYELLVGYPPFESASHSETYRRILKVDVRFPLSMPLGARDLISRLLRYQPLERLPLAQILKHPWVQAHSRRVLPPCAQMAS
# Sequence of UniProt Q9Y616 (whole entry, looked up): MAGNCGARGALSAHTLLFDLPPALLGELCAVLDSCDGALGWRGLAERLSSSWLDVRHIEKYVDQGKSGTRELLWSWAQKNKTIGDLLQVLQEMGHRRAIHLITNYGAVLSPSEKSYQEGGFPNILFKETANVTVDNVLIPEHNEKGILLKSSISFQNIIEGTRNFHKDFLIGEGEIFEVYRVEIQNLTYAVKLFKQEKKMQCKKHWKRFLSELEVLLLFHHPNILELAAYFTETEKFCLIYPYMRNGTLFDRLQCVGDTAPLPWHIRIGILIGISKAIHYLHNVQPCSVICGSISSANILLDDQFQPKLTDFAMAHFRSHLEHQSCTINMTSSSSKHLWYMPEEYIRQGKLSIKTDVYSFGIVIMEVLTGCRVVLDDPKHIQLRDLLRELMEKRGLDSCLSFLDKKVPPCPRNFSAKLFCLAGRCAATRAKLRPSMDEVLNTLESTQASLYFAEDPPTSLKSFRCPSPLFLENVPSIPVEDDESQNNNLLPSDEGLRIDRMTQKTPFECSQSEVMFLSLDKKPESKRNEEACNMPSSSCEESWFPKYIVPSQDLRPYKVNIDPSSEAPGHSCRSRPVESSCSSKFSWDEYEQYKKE
# Sequence of UniProt Q9UK32 (whole entry, looked up): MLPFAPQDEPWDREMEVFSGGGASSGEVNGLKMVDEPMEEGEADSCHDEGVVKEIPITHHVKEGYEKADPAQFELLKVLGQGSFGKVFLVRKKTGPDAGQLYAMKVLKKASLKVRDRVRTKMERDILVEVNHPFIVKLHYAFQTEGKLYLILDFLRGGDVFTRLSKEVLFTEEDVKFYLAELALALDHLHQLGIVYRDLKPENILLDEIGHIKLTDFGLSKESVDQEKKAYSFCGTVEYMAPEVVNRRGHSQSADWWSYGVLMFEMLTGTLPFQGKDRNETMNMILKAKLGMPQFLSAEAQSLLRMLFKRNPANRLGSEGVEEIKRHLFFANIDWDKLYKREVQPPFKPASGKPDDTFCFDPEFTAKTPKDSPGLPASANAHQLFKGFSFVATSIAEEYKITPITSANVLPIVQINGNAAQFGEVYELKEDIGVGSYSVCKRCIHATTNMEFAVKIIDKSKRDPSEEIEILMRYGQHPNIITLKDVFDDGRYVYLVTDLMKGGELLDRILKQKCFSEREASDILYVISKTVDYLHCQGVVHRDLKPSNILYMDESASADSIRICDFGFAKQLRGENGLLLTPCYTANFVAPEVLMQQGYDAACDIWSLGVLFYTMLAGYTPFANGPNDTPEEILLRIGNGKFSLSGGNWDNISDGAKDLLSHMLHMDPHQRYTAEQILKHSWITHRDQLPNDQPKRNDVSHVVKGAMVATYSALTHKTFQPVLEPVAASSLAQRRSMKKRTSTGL
# Sequence of UniProt Q9UPE1 (whole entry, looked up): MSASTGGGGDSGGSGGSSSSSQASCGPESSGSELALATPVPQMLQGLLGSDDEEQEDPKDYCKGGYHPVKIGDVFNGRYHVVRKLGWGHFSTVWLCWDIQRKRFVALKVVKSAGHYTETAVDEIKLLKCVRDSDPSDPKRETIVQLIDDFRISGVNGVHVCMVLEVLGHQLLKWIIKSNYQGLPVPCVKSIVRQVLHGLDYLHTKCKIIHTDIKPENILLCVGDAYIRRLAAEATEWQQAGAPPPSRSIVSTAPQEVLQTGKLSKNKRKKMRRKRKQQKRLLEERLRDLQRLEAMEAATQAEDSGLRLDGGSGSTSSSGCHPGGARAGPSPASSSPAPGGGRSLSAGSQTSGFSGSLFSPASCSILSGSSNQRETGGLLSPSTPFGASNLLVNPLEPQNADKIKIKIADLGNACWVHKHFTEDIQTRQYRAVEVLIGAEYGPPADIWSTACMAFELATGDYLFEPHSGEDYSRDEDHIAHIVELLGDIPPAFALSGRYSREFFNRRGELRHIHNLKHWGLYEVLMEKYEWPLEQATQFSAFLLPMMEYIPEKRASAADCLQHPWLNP
Structure (SMILES),tested on,test,system,conditions,measurement,result
Cc1cc2c(=O)n(Cc3cccnc3)c(=S)[nH]c2cn1,4'-phosphopantetheinyl transferase PptT,"enzyme activity, inhibitor, FP",,,IC50,740 nM
[2H]c1c([2H])c([C@]2([2H])CCCN2C(=O)C(C)(C)Oc2ccc3cn[nH]c3c2)c([2H])c([2H])c1C([2H])([2H])[2H],"Aurora kinase C (AURKC, Homo sapiens, UniProt Q9UQB9)","binding, competition with immobilised ligand",,1 µM,remaining binding,79%
COc1cc(C(=O)c2nc(-c3cccc4[nH]ccc34)c[nH]2)cc(OC)c1OC,M14,"cell growth or viability, MTS",,72 h,IC50,0.6 nM
CC(C)[C@@H]1NC(=O)[C@@H](CC(N)=O)NC(=O)[C@H](Cc2ccccc2)NC(=O)[C@@H](CCCN)NC(=O)[C@H](CCCN)NC(=O)[C@H]([C@@H](C)O)NC(=O)[C@@H](C(C)C)NC(=O)[C@H](C(C)C)NC(=O)[C@@H]([C@H](C)O)NC(=O)[C@@H](C(C)C)NC1=O,Balamuthia mandrillaris,"parasite growth, ATP luminescence",,,IC50,> 16 µg/mL
Nc1c(C(=O)NCc2ccccc2)sc2ncccc12,HepG2,cell growth or viability,,72 h,IC50,> 100000 nM
COc1ccc(Nc2nn3c(-c4ccccc4)ccnc3c2C(=O)Nc2ccc(Cl)cc2)cc1,A549,"cell growth or viability, MTT",,"100 µg/mL, 48 h, serum-free",viability,19.9%
N.N.[Cl][Pt][Cl],A549,"cell growth or viability, MTT",,72 h,IC50,7000 nM
Nc1c(C(=O)N2CCOCC2)sc2ncccc12,HepG2,cell growth or viability,,72 h,IC50,> 100000 nM
COc1cc(C(=O)c2nc(-c3cccc4[nH]ccc34)c(Br)[nH]2)cc(OC)c1OC,A-375,"cell growth or viability, MTS",,72 h,IC50,> 1000 nM
CC[C@@]1(O)C(=O)OCc2c1cc1n(c2=O)Cc2cc3ccccc3nc2-1,FR2,"cell growth or viability, SRB",,48 h,IC50,< 100000 nM
COc1cc(C(=O)c2nc(-c3cccc4[nH]ccc34)cn2C)cc(OC)c1OC,A-375,"cell growth or viability, MTS",,72 h,IC50,153 nM
O=C(c1cc2ccc(-c3ccccc3)nc2s1)N1CCCC1,HepG2,cell growth or viability,,72 h,IC50,49000 nM
N.N.[Cl][Pt][Cl],KU812,"cell growth or viability, ATP luminescence",,72 h,IC50,1840 nM
COc1ncccc1-c1cnn2ccc(N3CCN(C(=O)OC(C)C)CC3)nc12,"SRPK3 (Homo sapiens, UniProt Q9UPE1)","binding, competition with immobilised ligand",,1 µM,remaining binding,88%
O=C1CCP(c2ccccc2)CC1,HCT-116,"cell growth or viability, MTT",,72 h,IC50,> 100000 nM
COc1c(C)c2c(c(O)c1C/C=C(\C)CCC(=O)O)C(=O)OC2,SK-BR-3,cell growth or viability,,,IC50,1550 nM
COc1cc(C(=O)c2nc(-c3cccc4ncccc34)c[nH]2)cc(OC)c1OC,M14,"cell growth or viability, MTS",,72 h,IC50,> 1000 nM
Cc1nn(C)cc1-c1nc2c(N3CCN(Cc4ccc(Cl)cc4)CC3)c(Cl)cnc2[nH]1,"Ribosomal protein S6 kinase alpha-6, C-terminal kinase domain (RPS6KA6, Homo sapiens, UniProt Q9UK32)","binding, competition with immobilised ligand",,1 µM,remaining binding,89%
CC(C)[C@@H]1NC(=O)[C@@H](Cc2ccccc2)NC(=O)[C@H](CCCNC(=N)N)NC(=O)[C@@H]([C@H](C)O)NC(=O)[C@H](CC(N)=O)NC(=O)[C@@H](C(C)C)NC1=O,Balamuthia mandrillaris,"parasite growth, ATP luminescence",,,IC50,> 16 µg/mL
Nc1c(C(=O)N2CCOCC2)sc2nc(-c3cccnc3)ccc12,HepG2,cell growth or viability,,72 h,IC50,> 100000 nM
COCc1cc2[nH]c(=S)n(Cc3cccnc3)c(=O)c2cc1Cl,4'-phosphopantetheinyl transferase PptT,"enzyme activity, inhibitor, FP",,,IC50,7250 nM
O=C1CCP(=[Se])(c2ccccc2)CC1,HCT-116,"cell growth or viability, MTT",,72 h,IC50,> 100000 nM
CS(=O)(=O)OCCN(CCBr)c1c(C(=O)NCCO)cc([N+](=O)[O-])cc1[N+](=O)[O-],T-ALL,cell growth or viability,,48 h,IC50,1800 nM
COc1cc(C(=O)c2nc(-c3c[nH]c4ccccc34)c[nH]2)cc(OC)c1OC,M14,"cell growth or viability, MTS",,72 h,IC50,23.5 nM
COc1cc2cc(c1Cl)N(C)C(=O)C[C@H](OC(=O)[C@H](C)N(C)C(=O)CCS)[C@]1(C)O[C@H]1[C@H](C)[C@@H]1C[C@@](O)(NC(=O)O1)[C@H](OC)/C=C/C=C(\C)C2,B16,"cell growth or viability, SRB",,48 h,IC50,32.3 nM
Nc1c(C(=O)Nc2ccccc2F)sc2nc(-c3ccccc3)cc(C(F)(F)F)c12,HepG2,cell growth or viability,,72 h,IC50,> 100000 nM
COc1cc(C(=O)c2nc(-c3ccc4ccccc4c3)c[nH]2)cc(OC)c1OC,A-375,"cell growth or viability, MTS",,72 h,IC50,308 nM
COc1ccc(-c2ccc3c(N)c(C(=O)N4CCOCC4)sc3n2)cc1OC,HepG2,cell growth or viability,,72 h,IC50,> 100000 nM
COc1cc(C(=O)c2nc(-c3cccc4c3ccn4C)c[nH]2)cc(OC)c1OC,A-375,"cell growth or viability, MTS",,72 h,IC50,11.9 nM
C#Cc1ccc2c(c1)C(c1ccccn1)=NCc1c(-c3cnco3)ncn1-2.Cl,,,water,"80 min, 37 °C",kinetic solubility,4480 µg/mL
COc1cc(C(=O)c2nc(-c3cccc4occc34)c[nH]2)cc(OC)c1OC,A-375,"cell growth or viability, MTS",,72 h,IC50,69.4 nM
CN(C)C(=O)c1sc2ncccc2c1N,HepG2,cell growth or viability,,72 h,IC50,> 100000 nM
Cc1sc2c(c1C)C(c1ccc(Cl)cc1)=N[C@@H](CC(=O)OC(C)(C)C)c1nnc(C)n1-2,K562,"cell growth or viability, ATP luminescence",,,IC50,1060 nM
Nc1ncc(-c2nc(N3CCOCC3)nc(N3CCOCC3)n2)c(C(F)F)n1,"IRAK3 (Homo sapiens, UniProt Q9Y616)","binding, competition with immobilised ligand",,10 µM,remaining binding,83%
Cc1cccc(NC(=O)c2sc3nc(-c4ccccc4)cc(C(F)(F)F)c3c2N)c1C,HepG2,cell growth or viability,,72 h,IC50,> 100000 nM
N.N.[Cl][Pt][Cl],A549,"cell growth or viability, MTT",,,IC50,1720 nM
COc1ccc(Nc2nn3c(-c4ccccc4)ccnc3c2C(=O)Nc2ccccc2)cc1,A549,"cell growth or viability, MTT",,"25 µg/mL, 48 h, serum-free",viability,62.2%
